Measurements pooled from the literature.
Every numbered part comes from another study and shows a few of its results, in no order. Values joined by “and” are separate records of one study, mostly repeats; a detail may differ.
Sequence of UniProt P51956 (whole entry, looked up): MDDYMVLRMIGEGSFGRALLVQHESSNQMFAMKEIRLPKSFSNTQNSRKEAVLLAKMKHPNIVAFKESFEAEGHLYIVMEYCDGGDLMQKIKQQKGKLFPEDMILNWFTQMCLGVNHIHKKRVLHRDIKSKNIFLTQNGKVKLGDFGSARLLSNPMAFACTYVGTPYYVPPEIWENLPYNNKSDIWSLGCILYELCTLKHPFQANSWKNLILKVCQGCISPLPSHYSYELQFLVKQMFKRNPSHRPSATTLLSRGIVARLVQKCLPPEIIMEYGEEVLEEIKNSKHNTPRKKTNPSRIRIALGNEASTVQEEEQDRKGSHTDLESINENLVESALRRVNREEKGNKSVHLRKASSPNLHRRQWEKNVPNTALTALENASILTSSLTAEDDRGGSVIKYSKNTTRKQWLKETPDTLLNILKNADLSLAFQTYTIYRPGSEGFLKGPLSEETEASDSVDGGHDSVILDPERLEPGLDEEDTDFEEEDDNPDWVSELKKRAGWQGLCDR
Sequence of UniProt Q9UIK4 (whole entry, looked up): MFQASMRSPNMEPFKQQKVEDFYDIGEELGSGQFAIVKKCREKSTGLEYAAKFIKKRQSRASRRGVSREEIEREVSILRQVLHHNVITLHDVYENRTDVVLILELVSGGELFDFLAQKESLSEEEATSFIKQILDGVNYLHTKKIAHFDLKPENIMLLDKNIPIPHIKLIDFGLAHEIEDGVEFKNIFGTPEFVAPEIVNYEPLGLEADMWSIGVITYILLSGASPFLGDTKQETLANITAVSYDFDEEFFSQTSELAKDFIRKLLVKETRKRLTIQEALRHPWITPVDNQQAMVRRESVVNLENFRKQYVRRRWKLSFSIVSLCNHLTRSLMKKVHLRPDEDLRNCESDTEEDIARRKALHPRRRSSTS
Sequence of UniProt Q12852 (whole entry, looked up): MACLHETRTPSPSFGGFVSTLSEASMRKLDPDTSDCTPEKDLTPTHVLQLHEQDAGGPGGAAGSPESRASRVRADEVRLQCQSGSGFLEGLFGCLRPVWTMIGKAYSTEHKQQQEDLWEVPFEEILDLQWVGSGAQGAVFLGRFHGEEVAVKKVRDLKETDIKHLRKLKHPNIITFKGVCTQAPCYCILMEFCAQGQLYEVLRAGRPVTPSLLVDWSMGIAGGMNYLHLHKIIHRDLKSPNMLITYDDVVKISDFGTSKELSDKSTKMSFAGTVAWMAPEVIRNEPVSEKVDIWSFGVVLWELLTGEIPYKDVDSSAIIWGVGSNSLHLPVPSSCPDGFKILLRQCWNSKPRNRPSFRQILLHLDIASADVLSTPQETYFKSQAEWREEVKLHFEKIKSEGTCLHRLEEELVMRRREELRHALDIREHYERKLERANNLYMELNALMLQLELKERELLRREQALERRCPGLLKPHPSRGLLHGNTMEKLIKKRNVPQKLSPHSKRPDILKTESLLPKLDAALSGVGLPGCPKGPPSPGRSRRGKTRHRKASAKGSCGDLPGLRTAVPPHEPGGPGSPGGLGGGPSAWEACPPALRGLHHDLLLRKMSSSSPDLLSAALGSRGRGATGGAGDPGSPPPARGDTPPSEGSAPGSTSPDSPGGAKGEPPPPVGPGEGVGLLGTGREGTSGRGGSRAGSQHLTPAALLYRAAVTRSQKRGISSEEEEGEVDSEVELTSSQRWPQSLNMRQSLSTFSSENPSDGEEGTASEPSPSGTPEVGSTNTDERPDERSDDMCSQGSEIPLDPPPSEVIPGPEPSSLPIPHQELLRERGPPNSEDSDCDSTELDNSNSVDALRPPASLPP

Block 1
SMILES: CCN1/C(=C/C=C2\CCCC(/C=C/C3=[N+](CC)c4ccccc4C3(C)C)=C2NCCCCCCCCN2CCC(Nc3nc4ccccc4n3Cc3ccc(F)cc3)CC2)C(C)(C)c2ccccc21
Cell line: U-87 MG
Tested at: concentration not given
Reference: DMSO
Measurement: log2 fold change
test = measured: EPB41L4B mRNA; result = -0.863
test = measured: SPC25 mRNA; result = -2.02
test = measured: GINS1 mRNA; result = -2.43
test = measured: GPR176 mRNA; result = 1.06
test = measured: LPAR5 mRNA; result = -3.54
test = measured: SLC2A3 mRNA; result = 1.52
test = measured: SLC7A8 mRNA; result = -1.47
test = measured: NDEL1 mRNA; result = 0.965
test = measured: PDE1A mRNA; result = 4.39
test = measured: NFKBIA mRNA; result = 1.03
test = measured: KIF20B mRNA; result = -2.26
test = measured: EPB41 mRNA; result = 0.873
test = measured: TDRD9 mRNA; result = 3.75
test = measured: C21orf58 mRNA; result = -2.53
test = measured: CCDC74A mRNA; result = -0.967
test = measured: LBH mRNA; result = 0.955

Block 2
SMILES: Cc1cc2c([nH]1)c(=O)[nH]c(=S)n2Cc1cccc(OC/C(=C/F)CN)c1
Read-out: enzyme activity
Mode: inhibitor
Method: fluorescence
Measurement: inhibition
AOC3: Amine oxidase [copper-containing] 3 (AOC3, Homo sapiens, UniProt Q16853)
Sequence of UniProt Q16853 (whole entry, looked up): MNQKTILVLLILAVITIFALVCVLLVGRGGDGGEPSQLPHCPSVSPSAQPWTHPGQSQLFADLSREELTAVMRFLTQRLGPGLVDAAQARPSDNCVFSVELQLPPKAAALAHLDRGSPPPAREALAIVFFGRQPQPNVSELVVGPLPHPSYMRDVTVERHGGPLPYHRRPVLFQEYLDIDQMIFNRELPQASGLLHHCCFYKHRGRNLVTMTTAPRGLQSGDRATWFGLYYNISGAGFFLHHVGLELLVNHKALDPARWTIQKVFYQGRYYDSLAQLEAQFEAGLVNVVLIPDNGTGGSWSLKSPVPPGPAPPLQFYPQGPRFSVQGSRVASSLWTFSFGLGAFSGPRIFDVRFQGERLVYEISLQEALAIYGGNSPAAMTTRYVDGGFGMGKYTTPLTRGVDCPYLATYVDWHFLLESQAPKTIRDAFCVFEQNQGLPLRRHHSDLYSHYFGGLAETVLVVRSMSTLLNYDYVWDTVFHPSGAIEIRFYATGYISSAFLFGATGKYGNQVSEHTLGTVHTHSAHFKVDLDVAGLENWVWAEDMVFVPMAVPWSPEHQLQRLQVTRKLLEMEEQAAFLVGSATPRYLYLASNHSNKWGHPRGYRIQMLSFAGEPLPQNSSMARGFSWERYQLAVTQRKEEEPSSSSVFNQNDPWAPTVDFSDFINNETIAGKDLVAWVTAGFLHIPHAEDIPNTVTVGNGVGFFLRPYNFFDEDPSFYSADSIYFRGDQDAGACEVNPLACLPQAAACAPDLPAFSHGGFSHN
MPO: Myeloperoxidase (MPO, Homo sapiens, UniProt P05164)
Sequence of UniProt P05164 (whole entry, looked up): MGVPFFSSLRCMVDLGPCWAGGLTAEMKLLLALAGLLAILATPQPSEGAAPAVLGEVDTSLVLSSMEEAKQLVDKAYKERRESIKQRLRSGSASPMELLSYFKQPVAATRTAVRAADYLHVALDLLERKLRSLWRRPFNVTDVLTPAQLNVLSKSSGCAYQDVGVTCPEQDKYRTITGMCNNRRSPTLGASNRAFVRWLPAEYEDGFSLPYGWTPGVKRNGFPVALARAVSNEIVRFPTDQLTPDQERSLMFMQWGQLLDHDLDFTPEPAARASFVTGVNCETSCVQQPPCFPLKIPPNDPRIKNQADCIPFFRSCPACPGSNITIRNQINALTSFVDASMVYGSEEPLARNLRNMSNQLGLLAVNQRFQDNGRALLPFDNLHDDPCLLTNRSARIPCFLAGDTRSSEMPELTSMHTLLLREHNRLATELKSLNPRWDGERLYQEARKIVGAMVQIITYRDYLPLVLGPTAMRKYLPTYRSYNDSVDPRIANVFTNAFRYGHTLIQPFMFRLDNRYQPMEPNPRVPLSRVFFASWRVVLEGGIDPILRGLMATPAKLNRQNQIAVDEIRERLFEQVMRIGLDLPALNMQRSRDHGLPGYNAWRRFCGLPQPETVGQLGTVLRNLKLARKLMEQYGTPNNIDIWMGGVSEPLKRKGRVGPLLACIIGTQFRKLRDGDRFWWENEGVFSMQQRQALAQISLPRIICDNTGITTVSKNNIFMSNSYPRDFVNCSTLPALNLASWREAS
target = AOC3; setting = 4.6 nM; result = 10.8% and 13.7%
target = MPO; setting = 1.667 µM; result = 47.3% and 53.1% and 71.5%
target = AOC3; setting = 1.5 nM; result = 2.14% and 0.628%
target = AOC3; setting = 3.333 µM; result = 99.9% and 99.7%
target = MPO; setting = 5 µM; result = 80.3% and 86.2% and 79%
target = AOC3; setting = 41.2 nM; result = 62.7% and 64.4%
target = AOC3; setting = 0.3704 µM; result = 96.9% and 96.8%
target = MPO; setting = 0.5556 µM; result = 45.7% and 26.8% and 25%

Block 3
SMILES: CC[C@@]1(c2cccc(C(F)(F)F)c2)C2=C(Nc3n[nH]cc31)[C@H](F)C(C)(C)CC2=O (single isomer, unassigned)
Tested at: 1 µM
Measurement: remaining binding
target = Receptor tyrosine-protein kinase erbB-2 (ERBB2, Homo sapiens, UniProt P04626); test = binding, competition with immobilised ligand; result = 88%
target = Serine/threonine-protein kinase mTOR (MTOR, Homo sapiens, UniProt P42345); test = binding, competition with immobilised ligand; result = 45%
target = Serine/threonine-protein kinase LATS1 (LATS1, Homo sapiens, UniProt O95835); test = binding, competition with immobilised ligand; result = 96%
target = Fibroblast growth factor receptor 3 (FGFR3, Homo sapiens, UniProt P22607); test = kinase binding, KINOMEscan; scale = reference: DMSO control; result = 100%
target = Death-associated protein kinase 2 (DAPK2, Homo sapiens, UniProt Q9UIK4); test = binding, competition with immobilised ligand; result = 100%
target = Serine/threonine-protein kinase D3 (PRKD3, Homo sapiens, UniProt O94806); test = kinase binding, KINOMEscan; scale = reference: DMSO control; result = 79%
target = Calcium/calmodulin-dependent protein kinase type II subunit delta (CAMK2D, Homo sapiens, UniProt Q13557); test = binding, competition with immobilised ligand; result = 78%
target = Mitogen-activated protein kinase kinase kinase 12 (MAP3K12, Homo sapiens, UniProt Q12852); test = binding, competition with immobilised ligand; result = 100%
target = Insulin receptor-related protein (INSRR, Homo sapiens, UniProt P14616); test = kinase binding, KINOMEscan; scale = reference: DMSO control; result = 100%
target = Mast/stem cell growth factor receptor Kit (KIT, Homo sapiens, UniProt P10721, T670I/V559D); test = binding, competition with immobilised ligand; result = 78%
target = Tyrosine-protein kinase Lck (LCK, Homo sapiens, UniProt P06239); test = kinase binding, KINOMEscan; scale = reference: DMSO control; result = 100%
target = Aurora kinase B (AURKB, Homo sapiens, UniProt Q96GD4); test = binding, competition with immobilised ligand; result = 90%
target = Serine/threonine-protein kinase PRP4 homolog (PRPF4B, Homo sapiens, UniProt Q13523); test = kinase binding, KINOMEscan; scale = reference: DMSO control; result = 77%
target = Serine/threonine-protein kinase Nek3 (NEK3, Homo sapiens, UniProt P51956); test = binding, competition with immobilised ligand; result = 75%
target = Receptor-interacting serine/threonine-protein kinase 1 (RIPK1, Homo sapiens, UniProt Q13546); test = kinase binding, KINOMEscan; scale = reference: DMSO control; result = 100%
target = Homeodomain-interacting protein kinase 4 (HIPK4, Homo sapiens, UniProt Q8NE63); test = binding, competition with immobilised ligand; result = 99%
target = Phosphorylase b kinase gamma catalytic chain, skeletal muscle/heart isoform (PHKG1, Homo sapiens, UniProt Q16816); test = binding, competition with immobilised ligand; result = 92%
target = Interleukin-1 receptor-associated kinase 1 (IRAK1, Homo sapiens, UniProt P51617); test = binding, competition with immobilised ligand; result = 95%
target = Phosphatidylinositol 4,5-bisphosphate 3-kinase catalytic subunit alpha isoform (PIK3CA, Homo sapiens, UniProt P42336, Q546K); test = kinase binding, KINOMEscan; scale = reference: DMSO control; result = 59%

Block 4
SMILES: C[C@@H]1CN(c2ccc(-c3cc(C(=O)NCCOCCOCCOCCOCCNC(=O)/C=C/c4[nH]cc(C(=O)N[C@@H](CC(N)=O)c5ccc(F)c(Cl)c5)c4-c4ccc(Cl)cc4F)ccc3F)cc2NC(=O)c2c[nH]c(=O)cc2C(F)(F)F)C[C@H](C)N1C
Read-out: thermal unfolding
Method: differential scanning fluorimetry
Tested at: 5.5 µM
Direction: higher = more unfolded
Measurement: SYPRO Orange fluorescence
WDR5: WD repeat-containing protein 5 (WDR5, Homo sapiens, UniProt P61964)
DCAF1: DDB1- and CUL4-associated factor 1 (DCAF1, Homo sapiens, UniProt Q9Y4B6)
Sequence of UniProt Q9Y4B6 (whole entry, looked up): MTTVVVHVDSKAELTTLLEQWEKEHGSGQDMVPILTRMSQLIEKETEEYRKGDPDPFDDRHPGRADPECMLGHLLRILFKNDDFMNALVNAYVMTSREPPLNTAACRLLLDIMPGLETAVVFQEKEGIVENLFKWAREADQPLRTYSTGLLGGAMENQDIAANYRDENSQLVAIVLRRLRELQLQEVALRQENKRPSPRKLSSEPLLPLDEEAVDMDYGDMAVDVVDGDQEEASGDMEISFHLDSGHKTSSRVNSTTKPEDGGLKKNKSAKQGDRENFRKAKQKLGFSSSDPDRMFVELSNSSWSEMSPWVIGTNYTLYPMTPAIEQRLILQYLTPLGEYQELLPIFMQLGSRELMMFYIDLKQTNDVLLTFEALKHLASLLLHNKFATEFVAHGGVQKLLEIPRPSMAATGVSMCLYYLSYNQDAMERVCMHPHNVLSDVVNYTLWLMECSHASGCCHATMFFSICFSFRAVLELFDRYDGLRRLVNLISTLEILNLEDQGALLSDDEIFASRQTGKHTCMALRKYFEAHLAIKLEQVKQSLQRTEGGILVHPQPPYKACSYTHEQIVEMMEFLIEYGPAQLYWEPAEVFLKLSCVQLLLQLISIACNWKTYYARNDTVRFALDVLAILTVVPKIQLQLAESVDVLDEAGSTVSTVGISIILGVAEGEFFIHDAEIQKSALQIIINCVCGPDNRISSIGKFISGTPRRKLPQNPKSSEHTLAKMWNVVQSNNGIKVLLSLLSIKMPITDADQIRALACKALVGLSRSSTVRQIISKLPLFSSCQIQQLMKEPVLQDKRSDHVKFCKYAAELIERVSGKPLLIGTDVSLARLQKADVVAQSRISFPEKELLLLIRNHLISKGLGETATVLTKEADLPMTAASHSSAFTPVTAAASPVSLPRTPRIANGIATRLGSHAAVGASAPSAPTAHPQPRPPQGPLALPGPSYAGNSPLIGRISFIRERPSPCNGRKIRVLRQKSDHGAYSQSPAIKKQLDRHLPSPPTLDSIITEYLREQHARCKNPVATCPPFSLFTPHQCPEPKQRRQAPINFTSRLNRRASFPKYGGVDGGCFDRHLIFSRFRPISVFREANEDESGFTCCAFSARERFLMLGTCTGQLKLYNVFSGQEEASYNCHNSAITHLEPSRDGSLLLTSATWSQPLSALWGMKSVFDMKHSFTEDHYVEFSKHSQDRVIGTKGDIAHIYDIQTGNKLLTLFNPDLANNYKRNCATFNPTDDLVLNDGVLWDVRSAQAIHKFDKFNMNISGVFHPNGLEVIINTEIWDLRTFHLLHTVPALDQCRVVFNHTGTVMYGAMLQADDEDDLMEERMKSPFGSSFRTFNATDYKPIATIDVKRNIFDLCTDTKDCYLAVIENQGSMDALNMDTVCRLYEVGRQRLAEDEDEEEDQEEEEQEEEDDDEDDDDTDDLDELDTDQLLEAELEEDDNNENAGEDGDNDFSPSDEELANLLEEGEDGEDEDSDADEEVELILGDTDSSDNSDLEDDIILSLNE
target = WDR5; setting = 49.6 °C; result = 16300 a.u.
target = WDR5; setting = 27 °C; result = 13000 a.u.
target = WDR5; setting = 40.6 °C; result = 13900 a.u.
target = DCAF1; setting = 52.41 °C; result = 17300 a.u.
target = DCAF1; setting = 66.81 °C; result = 59100 a.u.
target = WDR5; setting = 74.41 °C; result = 24400 a.u.
target = DCAF1; setting = 83.61 °C; result = 41700 a.u.
target = WDR5; setting = 29.2 °C; result = 12700 a.u.
target = DCAF1; setting = 40 °C; result = 11600 a.u.
target = WDR5; setting = 34.2 °C; result = 13200 a.u.
target = DCAF1; setting = 82.61 °C; result = 42600 a.u.

Some of these lines once more (block 1):
test = measured: LPAR5 mRNA; result = -3.54
test = measured: SPC25 mRNA; result = -2.02
test = measured: GINS1 mRNA; result = -2.43
test = measured: PDE1A mRNA; result = 4.39
test = measured: EPB41 mRNA; result = 0.873
test = measured: C21orf58 mRNA; result = -2.53
test = measured: NDEL1 mRNA; result = 0.965
test = measured: KIF20B mRNA; result = -2.26
